# Results of several laboratories.
# Numbered parts are unrelated; each lists some results of a single study. Changes are numbered by the printed parent chain.

# Study 1 — target: CCNB1, cyclin fold, Cln2 fusion (human); technique: yeast growth competition, sequencing; medium: yeast; notes: weak parent motif; reference: not given; direction: higher = stronger binding
# Starting sequence: CDKN1B docking peptide (human); PSACRNLFGPVDH
Variant,normalised enrichment score
S2M,0.118
F8H,0.332
C4K,0.113
N6F,0.406
R5D,0.0776
H13T,0.427
V11E,0.379
R5S,-0.00164
P1Y,0.614
P10S,0.522
H13S,0.259
S2T,0.527
P10E,0.487
P10Y,0.919
R5A L7A,-0.0847

# Study 2 — technique: protein-binding microarray; molecule type: double-stranded DNA, one strand shown; medium: in vitro; concentration: 250 nM; notes: 60-bp whole probe; with: salmon DNA 0.4 mg/ml; reference: random background probes; direction: higher = stronger binding; all sequences stand within: GCCTAGCAC … GTCTTGATTCGCTTGACGCTGCTG
# Target: Interferon regulatory factor 7, full length, phosphomimetic (IRF7, Homo sapiens, UniProt Q92985, residues 1-503, S101K/S471D/S472D/S475D/S476D/S477D/S483D/S484D/S487D)
# UniProt Q92985, sequence (whole entry, unmodified, looked up): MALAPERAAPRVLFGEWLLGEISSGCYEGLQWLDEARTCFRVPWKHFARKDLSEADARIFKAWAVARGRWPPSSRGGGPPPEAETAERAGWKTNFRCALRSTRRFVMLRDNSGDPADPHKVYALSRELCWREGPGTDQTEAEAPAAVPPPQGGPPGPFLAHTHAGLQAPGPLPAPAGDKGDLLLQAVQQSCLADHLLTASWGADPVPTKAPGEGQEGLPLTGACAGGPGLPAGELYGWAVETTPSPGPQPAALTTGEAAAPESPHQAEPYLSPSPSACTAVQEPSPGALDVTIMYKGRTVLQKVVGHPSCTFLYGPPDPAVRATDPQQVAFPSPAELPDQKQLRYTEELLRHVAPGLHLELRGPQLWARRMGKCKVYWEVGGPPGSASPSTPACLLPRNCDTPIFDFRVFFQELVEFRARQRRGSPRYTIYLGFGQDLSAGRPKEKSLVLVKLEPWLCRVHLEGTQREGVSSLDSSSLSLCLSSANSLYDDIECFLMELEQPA
Sequence,log fluorescence
CACTTTGGATAACCAAAAACGTGCTAG,1.63 z-score
GACGATATCGAGTATCGAGACGTGCTA,0.116 z-score
CAAATTGTCTCTGTCCCTGTGTGCTAG,0.216 z-score
GACGATTTCAGACTGGTGACGTGCTAG,0.17 z-score
GACGATTCCCTTTTCCTGACGTGCTAG,1.37 z-score
TCACTTTCACTTCTCCCACTGTGCTAG,4.16 z-score
TTAGAACGGAGTATCGATTAGTGCTAG,0.338 z-score
TTAGATATCGGGTATCGATTGGTGCTA,0.797 z-score
GACGGTTTCGACTATTGGGACGTGCTA,4.7 z-score
TCAACTAGGGAATTTAGAACTGTGCTA,-0.297 z-score
TCATTTTTATCAATCATACTGTGCTAG,0.876 z-score
TTAGATGTCGGGTTTCGATTAGTGCTA,6.12 z-score
ATGTATACACACTATAGTGAAGTGCTA,0.358 z-score
GACGATATCGGGGATCGAGACGTGCTA,-0.646 z-score
TTGGCTTATTCCAGATTTTTGTGCTAG,-0.622 z-score

# Study 3 — technique: DHFR PCA, deep sequencing; medium: yeast; with: (+)-ABA 0.11 µM; reference: wild-type fitted maximum; direction: higher = stronger binding
# Target: ABI1, truncated, D143A, DHFR fusion (Arabidopsis thaliana)
# Notes: methotrexate growth selection, single substitutions
# Starting sequence: PYL1, truncated, DHFR fusion (Arabidopsis thaliana); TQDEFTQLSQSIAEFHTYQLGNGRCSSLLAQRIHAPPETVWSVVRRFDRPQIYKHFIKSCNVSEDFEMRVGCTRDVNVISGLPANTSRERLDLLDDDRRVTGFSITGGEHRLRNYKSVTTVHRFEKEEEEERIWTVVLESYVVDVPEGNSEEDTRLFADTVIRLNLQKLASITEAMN
Variant,relative binding score [%]
T120H,-4.01
T154Y,-28.4
T119Q,9.12
E131H,55.1
T39E,16.2
N149E,33.4
I172F,1.83

# Mixed results
Molecule,target,assay,system,conditions,scale,measurement,result
"PhoQ, residues 284 288 289 292 302 303 QWQEDG","PhoP, residues 12 14 15 18 19 TPWLV (Escherichia coli, UniProt P23836)","Sort-seq, item: YFP reporter",E. coli,"PhoQ-PhoP variant library, with: 10 µM Mg2+","reference: high Mg2+ state, higher = stronger signaling",fold induction,0.803

# Some of these lines once more (study 1):
Variant,normalised enrichment score
S2M,0.118
S2T,0.527
P1Y,0.614
R5S,-0.00164
